Measurements pooled from the literature.
Lines come from different studies, so protocols differ. Numbers after ± are the reported error.

Compound | assay | test system | conditions | scale | quantity | result
C[C@@H](O)[C@@H]1NC(=O)[C@@H](NC(=O)CCOCCOCCOCCOCCNC(=O)c2ccc(NN)nc2)CSSC[C@@H](C(=O)O)NC(=O)[C@H](Cc2c[nH]cn2)NC(=O)[C@H](CO)NC(=O)[C@H](Cc2ccccc2)NC(=O)[C@@H]2CCCN2C(=O)[C@H](CO)NC(=O)[C@@H]2CCCN2C1=O [technetium-99m labelled] |  | mouse HCT-116 xenograft, spleen | intravenous, 37 MBq, postmortem after imaging |  | tissue uptake | 0.27 ± 0.1 %ID/g
Cc1cc(O)cc(C)c1C[C@H](N)C(=O)N[C@H](C)C(=O)N[C@@H](Cc1ccccc1)C(=O)N[C@@H](CCCN)C(=O)NCCCCCC(=O)N[C@@H](CCCCNC(=O)CN1CCN(CC(=O)O)CCN(CC(=O)O)CCN(CC(=O)O)CC1)C(N)=O [indium-111 labelled] |  | saline, phosphate-buffered, n-octanol | pH 7.4 |  | logD | -3.5 ± 0.02
CC(=O)N[C@@H](CC(C)C)C(=O)N[C@H](C(=O)N[C@@H](Cc1ccccc1)C(=O)N[C@]1(C)CCCCCC/C=C/CCC[C@@](C)(C(=O)N[C@@H](C)C(=O)N[C@@H](C)C(=O)N[C@@H](C)C(=O)N[C@@H](C)C(=O)N[C@@H](C)C(=O)N[C@H](C)C(N)=O)NC(=O)[C@H](CC(C)C)NC(=O)[C@H](CCCCNC(=O)CCNC(=O)C[C@@H]2N=C(c3ccc(Cl)cc3)c3c(sc(C)c3C)-n3c(C)nnc32)NC(=O)[C@H](C)NC(=O)[C@H](Cc2c[nH]c3ccccc23)NC(=O)[C@H](Cc2ccc(O)cc2)NC(=O)[C@H](C)NC1=O)[C@@H](C)O |  | male C57BL/6 mouse, plasma | intraperitoneal, 3 mg/kg |  | half-life | 5.33 h
CCCCCCCCCCCCCCC(=O)N[C@@H](CCCCNC(=O)CN1CCN(CC(=O)O)CCN(CC(=O)O)CCN(CC(=O)O)CC1)C(=O)NCCCC[C@@H]1NC(=O)[C@@H](Cc2ccccc2)NC(=O)[C@H](CC(=O)O)NC(=O)CNC(=O)[C@H](CCCNC(=N)N)NC1=O [indium-111 labelled] |  | female BALB/c nude mice, U-87 MG xenograft, tumour | intravenous, 24 h |  | tumour uptake | 10.7 ± 0.72 %ID/g
N=C(N)NCCC[C@@H]1NC(=O)[C@H](CCCCNC(=O)CCC(NC(=S)Nc2ccc(CC3CN(CC(=O)O)CCN(CC(=O)O)CCN(CC(=O)O)CCN3CC(=O)O)cc2)C(=O)NCCCC[C@@H]2NC(=O)[C@@H](Cc3ccc(O)cc3)NC(=O)[C@H](CC(=O)O)NC(=O)CNC(=O)[C@H](CCCNC(=N)N)NC2=O)NC(=O)[C@@H](Cc2ccc(O)cc2)NC(=O)[C@H](CC(=O)O)NC(=O)CNC1=O (some centres unmarked) [scandium-44 labelled] | ex vivo γ-counting | female athymic nude mice, U-87 MG xenograft, blood | intravenous, 4 h, with: cRGD 50 mg/kg blocking |  | tissue uptake | 0.008 ± 0.002 %ID/g
CC(C)C[C@@H]1NC(=O)[C@H](CC(=O)O)NC(=O)CNC(=O)[C@H](CCCNC(=N)N)NC(=O)[C@H](Cc2ccccc2)NC(=O)[C@H](CCCCNC(=O)CCc2cn(CCCNC(=O)CN3CCN(CC(=O)O)CCN(CC(=O)O)CCN(CC(=O)O)CC3)nn2)N(C)C(=O)[C@H]2CCCN2C(=O)[C@H](Cc2ccccc2)NC(=O)[C@H](C)NC1=O |  | female CB17 SCID mice, tumour and eye | intravenous, dose not given, 90 min, 177Lu-labelled | reference: tumour over eye | tissue-to-tissue ratio | 3.9 ± 2.8
CCCC[C@H](NC(=O)CN1CCC(NC(=O)CN2CCN(CC(N)=O)CCN(CC(N)=O)CCN(CC(N)=O)CC2)CC1)C(=O)N[C@H]1CC(=O)NCCCC[C@@H](C(N)=O)NC(=O)[C@H](Cc2c[nH]c3ccccc23)NC(=O)[C@H](CCCNC(=N)N)NC(=O)[C@@H](Cc2ccccc2)NC(=O)[C@H](Cc2c[nH]cn2)NC1=O [lead-203 labelled] | SPECT/CT SUVmean | C57BL/6J mice B16-F10 tumour-bearing, tumour | 2 h | reference: amide over thiourea analogue | tumour uptake improvement | 3.9 fold
CCCCCCCCCCCCCCCCCCCCCCCCCC(=O)O[C@H](CCCCCCCCCCCCCC)[C@@H](O)[C@H](CO[C@H]1O[C@H](CO)[C@H](O)[C@H](O)[C@H]1O)NC(=O)OCOC(=O)CCCCCn1cc(CCC(=O)N[C@@H](Cc2ccccc2)C(=O)N[C@@H](Cc2ccccc2)C(=O)N[C@@H](CCCNC(=N)N)C(=O)N[C@@H](CCCCN)C(=O)N[C@@H](CO)C(=O)N[C@H](C(=O)N[C@H](C(=O)N[C@@H](CC(N)=O)C(=O)N[C@@H](Cc2ccccc2)C(=O)N[C@@H](CCC(=O)O)C(=O)N[C@@H](CCCCN)C(=O)N[C@@H](CC(C)C)C(=O)O)[C@@H](C)CC)[C@@H](C)CC)nn1 | HPLC-ESI-MS/MS | aqueous ammonium acetate | 10 µg/mL, eight days, pH 5.0, 20 °C |  | α-GalCer released | < 0.05%
CC(C)C[C@H](NC(=O)[C@@H](N)Cc1ccccc1)C(=O)N[C@@H](C)C(=O)N[C@H]1CSCc2cccc(n2)CSC[C@@H](C(=O)N[C@H](C(=O)NCC(=O)N[C@@H](CO)C(=O)N[C@@H](Cc2c[nH]c3ccccc23)C(=O)N[C@@H](CCCCNC(=O)CN2CCN(CC(=O)O)CCN(CC(=O)O)CCN(CC(=O)O)CC2)C(N)=O)[C@@H](C)O)NC(=O)[C@H](Cc2c[nH]cn2)NC(=O)[C@H]([C@@H](C)O)NC(=O)[C@H](CCC(=O)O)NC(=O)[C@@H]2CCCN2C1=O [gallium-68 labelled] | gamma counting | C57BL/6J mice, B16-F10 tumour, tumour | intravenous, 3.7 MBq, 4 h |  | tumour uptake | 6.06 ± 0.16 %ID/g
CC(C)C[C@@H]1NC(=O)[C@H](CC(=O)O)NC(=O)CNC(=O)[C@H](CCCNC(=N)N)NC(=O)[C@H](Cc2ccccc2)NC(=O)[C@H](CCCCNC(=O)CCc2cn(CCCNC(=O)CCC(C(=O)O)N3CCN(CC(=O)O)CCN(CC(=O)O)CCN(CC(=O)O)CC3)nn2)N(C)C(=O)[C@H]2CCCN2C(=O)[C@H](Cc2ccccc2)NC(=O)[C@H](C)NC1=O (some centres unmarked) |  | female CB17 SCID mice, tumour and lung | intravenous, dose not given, 90 min, 177Lu-labelled | reference: tumour over lung | tissue-to-tissue ratio | 2.8 ± 0.2
CC(C)C[C@H](NC(=O)[C@@H]1CCCN1C(=O)[C@H](CCCCN)NC(=O)[C@@H](N)CO)C(=O)N1CCC[C@H]1C(=O)N[C@@H](CCC(=O)O)C(=O)N[C@H](C(=O)N[C@H](C(=O)N[C@@H](CC(=O)O)C(=O)N[C@@H](CCC(=O)O)C(=O)N[C@@H](Cc1ccc(O)cc1)C(=O)NCC(=O)NCCOCCOCCOCCOCCC(=O)N[C@@H](CCCCNC(=O)CC[C@H](C(=O)O)N1CCN(CC(=O)O)CCN(CC(=O)O)CC1)C(=O)N1CCN(CCCN(C)c2ccc3nccc(C(=O)NCC(=O)N4CC(F)(F)C[C@H]4C#N)c3c2)CC1)[C@@H](C)O)C(C)C [copper-64 labelled] | PET | NMRI nude mouse, HT-1080 hFAP xenograft, tumour | intravenous |  | time to maximum uptake | ≥ 60 min

Repeated from above:
Compound | assay | test system | conditions | scale | quantity | result
CC(C)C[C@@H]1NC(=O)[C@H](CC(=O)O)NC(=O)CNC(=O)[C@H](CCCNC(=N)N)NC(=O)[C@H](Cc2ccccc2)NC(=O)[C@H](CCCCNC(=O)CCc2cn(CCCNC(=O)CCC(C(=O)O)N3CCN(CC(=O)O)CCN(CC(=O)O)CCN(CC(=O)O)CC3)nn2)N(C)C(=O)[C@H]2CCCN2C(=O)[C@H](Cc2ccccc2)NC(=O)[C@H](C)NC1=O (some centres unmarked) |  | female CB17 SCID mice, tumour and lung | intravenous, dose not given, 90 min, 177Lu-labelled | reference: tumour over lung | tissue-to-tissue ratio | 2.8 ± 0.2
